Measured values from different studies.
Numbered parts are unrelated; each lists some results of a single study.

Series 1
Target: Sal-like protein 4, full length isoform B (SALL4, Homo sapiens, UniProt Q9UJQ4-2, residues 1-616)
Technique: universal PBM
Form: double-stranded DNA, one strand shown
Medium: in vitro
Concentration: not given
Notes: 8-mer, flanks averaged, mean of replicates
Direction: higher = stronger binding
For `CACTTGCC`, the E-score was -0.168.
`CCACGTGC` has an E-score of -0.179.
With `CCCGGCAA` the E-score was -0.216.
`AGATACTC` gave an E-score of 0.0899.
`CGGCGCGA` has an E-score of -0.134.
`GCTATCTA` has an E-score of -0.017.
With `AGGTATGA` the E-score was 0.179.
`AGTGGTTC` has an E-score of -0.071.

Series 2
Target: POU, POU domain (Salpingoeca helianthica)
Technique: Spec-seq
Form: double-stranded DNA, one strand shown
Medium: in vitro
Concentration: not given
Notes: whole probe, mean of replicates
Reference: not given
Direction: lower = stronger binding
Shared flanks, not repeated: GAGTCGTCTCGTCAGCAC … CCGTAGAGCACTCAGGTC
Target sequence (chain): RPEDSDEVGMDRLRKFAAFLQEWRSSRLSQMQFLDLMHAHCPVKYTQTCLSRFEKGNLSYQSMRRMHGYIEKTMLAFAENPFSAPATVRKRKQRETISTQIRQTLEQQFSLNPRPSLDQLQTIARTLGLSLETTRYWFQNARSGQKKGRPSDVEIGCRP
Under “relative binding energy”, `ATGCAACA` is recorded as 0.927 ln ratio.
For `ATGCATGT`, “relative binding energy” read 1.28 ln ratio.
`ATGCCGAT` — result for “relative binding energy”: 1.52 ln ratio.
Under “relative binding energy”, `TGGCTAAT` is recorded as 0.54 ln ratio.
`GACATAAT`: “relative binding energy” 0.99 ln ratio.
Under “relative binding energy”, `ATGCCCCC` is recorded as 1.32 ln ratio.
For `ATCCTGAT`, “relative binding energy” read 1.25 ln ratio.
Under “relative binding energy”, `ATGCATAG` is recorded as 1.25 ln ratio.

Other studies, line by line
`HNRNPU (Homo sapiens, UniProt Q00839)` — result for cross-linked residues: “K352 to S128” (KRR1 (Homo sapiens, UniProt Q13601); cross-linking MS; cell fractions; with: DSSO).
For CCOC(N)=O, the viability was 119% (A-375; 100 µM, 36 h).
`PSMC2 (Homo sapiens, UniProt P35998)`: interaction screen “cross-linked” (PSMC4 (Homo sapiens, UniProt P43686); cross-linking MS; hits only).
`TRAP1 (Homo sapiens, UniProt Q12931)` — result for cross-linked residues: “K466 to T488” (ELAC2 (Homo sapiens, UniProt Q9BQ52); cross-linking MS; cell fractions; with: DSSO).
For `AGPS (Homo sapiens, UniProt O00116)`, cross-linked residues read “E170 to K184” (HSD17B4 (Homo sapiens, UniProt P51659); cross-linking MS; cell fractions; with: DMTMM).

Some of these lines once more (series 1):
`GCTATCTA` has an E-score of -0.017.
With `AGGTATGA` the E-score was 0.179.
`AGTGGTTC` has an E-score of -0.071.
